Experimental data from different studies.
Protocols differ between the studies behind these lines. Numbers after ± are the reported error.

C=Cc1c(C)c2cc3nc(c(CC(=O)[O-])c4[n-]c(cc5nc(cc1[n-]2)C(C)=C5CC)c(C)c4C(=O)[O-])C(CCC(=O)[O-])C3C.[Cu+2].[Na+].[Na+].[Na+] (centres unmarked)
serum creatinine (Wistar rat, male; oral, 500 mg/kg daily, 28 days): 0.32 ± 0.04 mg/dL

COc1cnc2cccc(N3CCc4c(cc(Cn5ccnc5)cc4-c4cn(C)nc4C(F)(F)F)C3=O)c2c1
body weight (CD-1 mice; intraperitoneal, 150 mg/kg once daily, day 1): 28 ± 1 g

CCOc1ccccc1-n1c(CN2CCNCC2)nc2ccccc2c1=O
AUC(0-t) (C57BL/6 mouse, male, plasma; intravenous, 1 mg/kg): 1.26 µM·h

CC[C@H](C)[C@H](NC(=O)[C@@H](NC(=O)c1cccc(Cl)c1Cl)C(C)(C)C)C(=O)N[C@H](C(=O)N[C@H](C(=O)N[C@H](C(=O)N[C@@H](CCC(N)=O)C(=O)N[C@@H](Cc1c[nH]cn1)C(=O)N[C@H](CC(C)C)C(=O)N[C@@H](CO)C(=O)NCCC(=O)N[C@@H](CCCCNC(=O)CC[C@@H]1NC(=O)[C@@H](CCCNC(=N)N)NC(=O)[C@H](CCCNC(=N)N)NC(=O)[C@@H](CCCNC(=N)N)NC(=O)[C@H](CCCNC(=N)N)NC(=O)[C@H](Cc2ccc3ccccc3c2)NC(=O)[C@@H](Cc2ccccc2)NC1=O)C(N)=O)[C@@H](C)O)[C@@H](C)CC)C(C)(C)C
aqueous solubility (turbidity; PBS with 5% DMSO; 1 h, pH 7.4, up to 100 µM tested): ≥ 100 µM

O=C1NC2(CC2)COc2ncc(F)cc2[C@H]2COCCN2c2ccn3ncc1c3n2
organ-to-body weight ratio (Sprague-Dawley rat, male, adrenals; oral, 20 mg/kg/day, 4 weeks, end of treatment): 0.015 ± 0.001%

CC[C@H](C)[C@H](NC(=O)[C@H](CCCCN)NC(=O)CNC(=O)[C@H](CC(C)C)NC(=O)[C@H](Cc1ccccc1)NC(=O)[C@H](CCCCN)NC(=O)[C@H](CO)NC(=O)[C@H](Cc1ccccc1)NC(=O)[C@H](Cc1c[nH]c2ccccc12)NC(=O)[C@H](CCC(N)=O)NC(=O)[C@@H](NC(=O)[C@H](Cc1ccccc1)NC(=O)CCCCCNC(=O)CN1CCN(CC(=O)O)CCN(CC(=O)O)CCN(CC(=O)O)CC1)C(C)C)C(=O)N[C@@H](CCC(=O)O)C(=O)N1CCC[C@H]1C(=O)N[C@@H](CC(=O)O)C(=O)N[C@H](C(=O)N[C@@H](CO)C(=O)N[C@@H](CCC(N)=O)C(=O)N[C@H](C(=O)N[C@@H](CCC(N)=O)C(=O)N[C@@H](CC(=O)O)C(=O)N1CCC[C@H]1C(=O)N[C@@H](CC(N)=O)C(=O)N[C@@H](CC(=O)O)C(=O)N[C@@H](CCC(N)=O)C(=O)N[C@@H](Cc1ccc(O)cc1)C(=O)N[C@@H](CCC(=O)O)C(=O)N1CCC[C@H]1C(=O)N[C@@H](Cc1ccccc1)C(=O)O)C(C)C)C(C)C [copper-64 labelled]
tissue uptake (BALB/c mice, male, CT26 tumour-bearing, stomach; 2 h, anti-PD1 plus anti-CTLA4 treated): 1.66 ± 0.6 %ID/g

CC(C)C(=O)OC[C@H]1O[C@@](C#N)(n2ccc(N)nc2=O)[C@H](O)[C@@H]1O
half-life (plasma stability; human plasma): > 2 h

CC(CCC(=O)NCC(=O)O)C1CCC2C3CCC4CC(OC5OC(C(=O)O)C(O)C(O)C5O)CCC4(C)C3CC(O)C12C (centres unmarked)
plasma concentration (human women; dose not given, SLCO1B1 *14/*35): 32.3 ng/mL

O=C(c1cc(Cc2n[nH]c(=O)c3ccccc23)ccc1F)N1CC(CNC2CC2)C1
AUC(0-inf) (female ICR mouse, plasma; oral, 60 mg/kg): 6420 ng·h/mL

CC(C(=O)O)n1nc(Cn2cc3cc(OCC[18F])c(Cl)cc3n2)c2ccccc2c1=O (racemic)
parent radiotracer (HPLC; nonhuman primate, plasma; 60 min post-injection; reference: plasma radioactivity): 85%

CC(C)[C@@H]1NC(=O)CNC(=O)[C@H](CC(N)=O)NC(=O)[C@H](CCCNC(=N)N)NC(=O)[C@H](Cc2ccc(O)cc2)NC(=O)[C@H](C(C)C)NC(=O)[C@@H](NC(=O)[C@@H](NC(=O)[C@H](CC(N)=O)NC(=O)[C@H](Cc2c[nH]c3ccccc23)NC(=O)[C@H](C)NC(=O)[C@H](Cc2ccccc2)NC(=O)CNC(=O)[C@H](CCCCN)NC(=O)[C@H](Cc2ccccc2)NC(=O)[C@H](Cc2ccccc2)NC(=O)[C@H](CCCCN)NC(=O)OCC2c3ccccc3-c3ccccc32)C(C)C)CSSC[C@@H](C(=O)N[C@@H](Cc2c[nH]cn2)C(=O)N[C@@H](CCCNC(=N)N)C(=O)N[C@@H](CCCNC(=N)N)C(=O)N[C@@H](C)C(=O)N[C@@H](CC(N)=O)C(N)=O)NC(=O)[C@H](C(C)C)NC(=O)[C@H](CCCNC(=N)N)NC1=O
stimulus response score (ICR mouse; ip, 5 mg/kg; direction not given): 0

CC(C)[C@H](NC(=O)[C@@H](NC(=O)[C@H](CCCNC(=N)N)NC(=O)[C@H](CCCNC(=N)N)NC(=O)[C@H](CCCNC(=N)N)NC(=O)[C@H](CCC(N)=O)NC(=O)[C@H](CCCNC(=N)N)NC(=O)[C@H](CCCNC(=N)N)NC(=O)[C@H](CCCCN)NC(=O)[C@H](CCCCN)NC(=O)[C@H](CCCNC(=N)N)NC(=O)CN)[C@@H](C)O)C(=O)N[C@H](C(=O)N[C@@H](CO)C(=O)N1CCC[C@H]1C(=O)O)[C@@H](C)O
organ weight (ICR mice, male, lung; intranasal, 20 mg/kg daily, 4 weeks): 0.39 ± 0.028 g

C[C@H](O)[C@@H](NC(=O)[C@H]1CCCN1C(=O)[C@@H](CCCCN)NC(=O)[C@@H](CO)NC(=O)[C@@H](Cc1ccc(O)cc1)NC(=O)[C@@H](CC(N)=O)NC(=O)CCOCCOCCOCCNC(=O)CN1CCN(CC(=O)O)CCN(CC(=O)O)CCN(CC(=O)O)CC1)C(=O)N[C@H](CC(=O)O)C(=O)N[C@H](CCCNC(=N)N)C(=O)N[C@H](CCC(N)=O)C(=O)N[C@H](Cc1ccc(O)cc1)C(=O)N[C@H](Cc1c[nH]cn1)C(=O)N[C@H](Cc1ccccc1)C(N)=O [gallium-68 labelled]
tissue uptake (ex vivo gamma counting; BALB/c nude mouse, U-87 MG xenograft, blood; intravenous, 1.85 MBq, 30 min): 1.55 ± 1.07 %ID/g

CSCC[C@H](N)C(=O)N[C@@H](C)C(=O)N[C@@H](Cc1c[nH]c2ccccc12)C(=O)N[C@@H](Cc1c[nH]cn1)C(=O)N[C@@H](CC(=O)O)C(=O)N[C@@H](CC(=O)O)C(=O)N[C@@H](CCC(=O)O)C(=O)N[C@@H](CCC(=O)O)C(=O)N[C@@H](Cc1ccccc1)C(=O)N[C@@H](C)C(=O)N[C@@H](CCCNC(=N)N)C(=O)N[C@@H](CCCNC(=N)N)C(=O)N[C@@H](CCCNC(=N)N)C(=O)N[C@@H](CCCNC(=N)N)C(=O)NCCCCCC(=O)NCCCCC(NC(=O)CCCCCNC(=O)[C@H](CCCNC(=N)N)NC(=O)[C@H](CCCNC(=N)N)NC(=O)[C@H](CCCNC(=N)N)NC(=O)[C@H](CCCNC(=N)N)NC(=O)[C@H](C)NC(=O)[C@H](Cc1ccccc1)NC(=O)[C@H](CCC(=O)O)NC(=O)[C@H](CCC(=O)O)NC(=O)[C@H](CC(=O)O)NC(=O)[C@H](CC(=O)O)NC(=O)[C@H](Cc1c[nH]cn1)NC(=O)[C@H](Cc1c[nH]c2ccccc12)NC(=O)[C@H](C)NC(=O)[C@@H](N)CCSC)C(=O)NCCCCC(NC(=O)C(CCCCNC(=O)CCCCCNC(=O)[C@H](CCCNC(=N)N)NC(=O)[C@H](CCCNC(=N)N)NC(=O)[C@H](CCCNC(=N)N)NC(=O)[C@H](CCCNC(=N)N)NC(=O)[C@H](C)NC(=O)[C@H](Cc1ccccc1)NC(=O)[C@H](CCC(=O)O)NC(=O)[C@H](CCC(=O)O)NC(=O)[C@H](CC(=O)O)NC(=O)[C@H](CC(=O)O)NC(=O)[C@H](Cc1c[nH]cn1)NC(=O)[C@H](Cc1c[nH]c2ccccc12)NC(=O)[C@H](C)NC(=O)[C@@H](N)CCSC)NC(=O)CCCCCNC(=O)[C@H](CCCNC(=N)N)NC(=O)[C@H](CCCNC(=N)N)NC(=O)[C@H](CCCNC(=N)N)NC(=O)[C@H](CCCNC(=N)N)NC(=O)[C@H](C)NC(=O)[C@H](Cc1ccccc1)NC(=O)[C@H](CCC(=O)O)NC(=O)[C@H](CCC(=O)O)NC(=O)[C@H](CC(=O)O)NC(=O)[C@H](CC(=O)O)NC(=O)[C@H](Cc1c[nH]cn1)NC(=O)[C@H](Cc1c[nH]c2ccccc12)NC(=O)[C@H](C)NC(=O)[C@@H](N)CCSC)C(N)=O (some centres unmarked)
mean tissue distribution (C57BL/6 mouse female, lungs; dose not given, 3 h; reference: total): 2.14%

CN1Cc2cc(Cl)ccc2-n2c(nnc2C2CCN(c3cccc([18F])n3)CC2)C1
total volume of distribution (PET two-tissue compartment model; rhesus monkey, thalamus; intravenous, dose not given, 100 min scan, baseline scan): 1.14 ± 0.35 mL/cm3

CCCCC[C@H]1C(=O)N(C)[C@H](C)C(=O)N(C)[C@@H](CCCCC)C(=O)N(C)[C@H](C)C(=O)N(C)[C@@H](CCCCC)C(=O)N(C)[C@H](C)C(=O)N(C)[C@@H](CCCCC)C(=O)N(C)[C@H](C)C(=O)N1C
log Papp (PAMPA, HPLC-UV; 500 µM, pH 7.4): -5.55 ± 0.06

N#[11C]c1ccc(-c2csc(NN=C3CCCC3)n2)cc1
uptake in blood (C57BL/6 mouse, male; intravenous, 3 MBq, 60 min): 2.57 ± 0.68 %ID/g

CC(C)N1CCCCC1C(=O)NC(Cc1ccc(-c2ccccc2)cc1)B(O)O (centres unmarked)
Papp A→B (Caco-2): 4.6 ×10⁻⁶ cm/s

CC(C)(CCCC/C=C/CCCCCC(C)(C)C(=O)O)C(=O)O
plasma concentration (beagle dog, both sexes; oral, dose not given, 10 h): 10600 ng/mL

CSCC[C@H](NC(=O)CNC(=O)[C@H](CCCCN)NC(=O)[C@H](CC(C)C)NC(=O)[C@@H]1CCCN1C(=O)[C@H](CO)NC(=O)[C@H](Cc1c[nH]cn1)NC(=O)[C@H](Cc1c[nH]c2ccccc12)NC(=O)[C@H](CCCNC(=N)N)NC(=O)[C@H](CC(C)C)NC(=O)[C@H](CCCNC(=N)N)NC(=O)[C@H](Cc1c[nH]c2ccccc12)NC(=O)[C@H](CS)NC(=O)CCCCCNC(=O)CN1CCN(CC(=O)O)CCN(CC(=O)O)CCN(CC(=O)O)CC1)C(=O)O [copper-64 labelled]
tissue uptake (PET imaging; BALB/c nude mice, kidney; intravenous, dose not given, 55 h, Huh-7 tumour-bearing): 2.74 ± 0.2 %ID/g

Repeated from above:
CN1Cc2cc(Cl)ccc2-n2c(nnc2C2CCN(c3cccc([18F])n3)CC2)C1
total volume of distribution (PET two-tissue compartment model; rhesus monkey, thalamus; intravenous, dose not given, 100 min scan, baseline scan): 1.14 ± 0.35 mL/cm3

CCCCC[C@H]1C(=O)N(C)[C@H](C)C(=O)N(C)[C@@H](CCCCC)C(=O)N(C)[C@H](C)C(=O)N(C)[C@@H](CCCCC)C(=O)N(C)[C@H](C)C(=O)N(C)[C@@H](CCCCC)C(=O)N(C)[C@H](C)C(=O)N1C
log Papp (PAMPA, HPLC-UV; 500 µM, pH 7.4): -5.55 ± 0.06
